Assay results pooled from the literature.
Protocols differ between the studies behind these lines. ± marks the error that the study gave.
Kir3.1/Kir3.2: Kir3.1/Kir3.2 (Homo sapiens, UniProt P48051+P48549)
Chain of UniProt P48051 (whole entry, looked up): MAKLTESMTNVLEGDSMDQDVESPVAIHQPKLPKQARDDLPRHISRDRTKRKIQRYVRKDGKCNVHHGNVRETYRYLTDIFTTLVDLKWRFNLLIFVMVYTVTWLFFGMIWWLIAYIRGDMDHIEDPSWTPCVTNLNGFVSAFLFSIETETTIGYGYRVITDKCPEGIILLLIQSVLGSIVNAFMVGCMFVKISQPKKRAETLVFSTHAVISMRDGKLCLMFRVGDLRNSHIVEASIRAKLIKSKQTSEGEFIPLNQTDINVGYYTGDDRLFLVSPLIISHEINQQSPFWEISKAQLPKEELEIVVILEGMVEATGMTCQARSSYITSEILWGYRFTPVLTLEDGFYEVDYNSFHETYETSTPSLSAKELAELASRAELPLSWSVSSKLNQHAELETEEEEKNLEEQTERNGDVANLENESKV
Chain of UniProt P48549 (whole entry, looked up): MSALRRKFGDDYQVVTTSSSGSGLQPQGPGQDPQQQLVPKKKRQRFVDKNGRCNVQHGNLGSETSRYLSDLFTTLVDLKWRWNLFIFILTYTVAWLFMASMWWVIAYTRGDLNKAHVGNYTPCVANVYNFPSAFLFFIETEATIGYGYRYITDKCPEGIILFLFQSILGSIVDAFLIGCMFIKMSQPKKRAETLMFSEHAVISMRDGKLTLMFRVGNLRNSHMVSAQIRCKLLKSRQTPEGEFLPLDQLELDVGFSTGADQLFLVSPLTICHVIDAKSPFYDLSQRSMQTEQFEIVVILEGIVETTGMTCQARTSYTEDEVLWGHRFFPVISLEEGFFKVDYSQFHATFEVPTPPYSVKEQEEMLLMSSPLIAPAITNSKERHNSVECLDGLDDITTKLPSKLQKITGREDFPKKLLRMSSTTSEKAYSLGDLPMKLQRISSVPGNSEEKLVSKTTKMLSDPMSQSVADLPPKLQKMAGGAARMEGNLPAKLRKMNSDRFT
BACE1: Beta-secretase 1 (BACE1, Homo sapiens, UniProt P56817)
Chain of UniProt P56817 (whole entry, looked up): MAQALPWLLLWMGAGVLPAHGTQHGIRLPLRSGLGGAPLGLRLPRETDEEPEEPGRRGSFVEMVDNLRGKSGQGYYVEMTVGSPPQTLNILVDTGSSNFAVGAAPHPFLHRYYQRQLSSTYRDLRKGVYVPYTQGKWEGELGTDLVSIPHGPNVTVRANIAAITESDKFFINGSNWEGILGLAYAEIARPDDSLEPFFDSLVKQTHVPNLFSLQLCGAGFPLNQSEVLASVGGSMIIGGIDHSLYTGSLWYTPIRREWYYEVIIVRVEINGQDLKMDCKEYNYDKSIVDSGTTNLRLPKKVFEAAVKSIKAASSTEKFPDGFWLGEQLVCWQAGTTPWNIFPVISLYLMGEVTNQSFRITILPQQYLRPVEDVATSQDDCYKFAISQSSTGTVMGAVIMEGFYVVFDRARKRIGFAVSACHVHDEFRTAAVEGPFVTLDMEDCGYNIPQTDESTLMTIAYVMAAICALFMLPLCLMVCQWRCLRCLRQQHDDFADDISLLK
Ephx2: Bifunctional epoxide hydrolase 2 (Ephx2, Mus musculus, UniProt P34914)
Chain of UniProt P34914 (whole entry, looked up): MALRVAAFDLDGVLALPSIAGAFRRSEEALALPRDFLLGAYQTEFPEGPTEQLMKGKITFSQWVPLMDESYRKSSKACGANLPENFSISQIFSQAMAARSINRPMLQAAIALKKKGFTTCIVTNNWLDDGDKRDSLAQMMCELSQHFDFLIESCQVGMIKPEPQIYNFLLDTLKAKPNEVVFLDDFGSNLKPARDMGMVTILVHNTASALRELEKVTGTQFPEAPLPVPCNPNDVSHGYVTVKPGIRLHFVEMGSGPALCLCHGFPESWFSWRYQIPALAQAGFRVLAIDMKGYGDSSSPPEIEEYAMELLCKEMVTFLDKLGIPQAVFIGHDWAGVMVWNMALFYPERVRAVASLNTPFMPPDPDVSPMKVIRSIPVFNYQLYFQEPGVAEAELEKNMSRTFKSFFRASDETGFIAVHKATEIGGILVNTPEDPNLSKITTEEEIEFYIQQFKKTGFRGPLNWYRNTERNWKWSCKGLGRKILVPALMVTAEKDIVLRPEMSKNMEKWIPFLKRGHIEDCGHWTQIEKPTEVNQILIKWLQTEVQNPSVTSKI
HDAC1: Histone deacetylase 1 (HDAC1, Homo sapiens, UniProt Q13547)
Chain of UniProt Q13547 (whole entry, looked up): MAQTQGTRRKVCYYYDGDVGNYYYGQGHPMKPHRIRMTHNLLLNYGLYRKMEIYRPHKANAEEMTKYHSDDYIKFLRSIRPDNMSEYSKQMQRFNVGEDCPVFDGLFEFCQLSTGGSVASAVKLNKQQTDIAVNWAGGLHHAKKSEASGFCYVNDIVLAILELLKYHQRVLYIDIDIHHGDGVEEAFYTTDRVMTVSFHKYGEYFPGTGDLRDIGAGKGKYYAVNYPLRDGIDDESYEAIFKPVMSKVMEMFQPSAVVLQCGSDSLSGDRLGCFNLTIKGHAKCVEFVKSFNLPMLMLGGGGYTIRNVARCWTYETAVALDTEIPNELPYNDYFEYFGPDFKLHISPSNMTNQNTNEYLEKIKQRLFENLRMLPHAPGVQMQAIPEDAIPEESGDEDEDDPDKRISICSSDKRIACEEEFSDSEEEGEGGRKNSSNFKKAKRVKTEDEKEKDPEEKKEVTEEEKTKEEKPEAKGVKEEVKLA
Grik2: Glutamate receptor ionotropic, kainate 2 (Grik2, Rattus norvegicus, UniProt P42260)
Chain of UniProt P42260 (whole entry, looked up): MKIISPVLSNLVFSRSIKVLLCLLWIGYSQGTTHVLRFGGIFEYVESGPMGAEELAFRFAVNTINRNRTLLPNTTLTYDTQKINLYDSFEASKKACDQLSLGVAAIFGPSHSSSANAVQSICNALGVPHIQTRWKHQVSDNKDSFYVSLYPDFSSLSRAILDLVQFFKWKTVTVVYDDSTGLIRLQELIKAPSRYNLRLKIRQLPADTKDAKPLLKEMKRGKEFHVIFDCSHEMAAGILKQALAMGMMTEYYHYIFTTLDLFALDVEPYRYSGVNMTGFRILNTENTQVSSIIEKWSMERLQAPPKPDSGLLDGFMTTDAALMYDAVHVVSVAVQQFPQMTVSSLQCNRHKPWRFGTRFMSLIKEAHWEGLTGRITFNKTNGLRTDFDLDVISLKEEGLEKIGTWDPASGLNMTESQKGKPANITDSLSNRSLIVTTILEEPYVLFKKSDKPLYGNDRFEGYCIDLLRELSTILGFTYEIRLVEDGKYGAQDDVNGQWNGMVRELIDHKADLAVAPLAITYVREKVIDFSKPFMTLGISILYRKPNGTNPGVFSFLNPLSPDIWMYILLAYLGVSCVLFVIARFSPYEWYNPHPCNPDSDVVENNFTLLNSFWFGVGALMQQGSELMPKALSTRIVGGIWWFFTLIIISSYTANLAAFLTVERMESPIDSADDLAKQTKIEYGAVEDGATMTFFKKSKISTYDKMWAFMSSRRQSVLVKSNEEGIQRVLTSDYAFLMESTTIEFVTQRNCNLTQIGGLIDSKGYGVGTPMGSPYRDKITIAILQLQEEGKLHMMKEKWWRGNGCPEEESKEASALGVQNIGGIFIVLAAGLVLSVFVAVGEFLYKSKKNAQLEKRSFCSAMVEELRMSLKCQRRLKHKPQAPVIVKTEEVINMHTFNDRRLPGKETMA
EGLN1: Egl nine homolog 1 (EGLN1, Homo sapiens, UniProt Q9GZT9)
Chain of UniProt Q9GZT9 (whole entry, looked up): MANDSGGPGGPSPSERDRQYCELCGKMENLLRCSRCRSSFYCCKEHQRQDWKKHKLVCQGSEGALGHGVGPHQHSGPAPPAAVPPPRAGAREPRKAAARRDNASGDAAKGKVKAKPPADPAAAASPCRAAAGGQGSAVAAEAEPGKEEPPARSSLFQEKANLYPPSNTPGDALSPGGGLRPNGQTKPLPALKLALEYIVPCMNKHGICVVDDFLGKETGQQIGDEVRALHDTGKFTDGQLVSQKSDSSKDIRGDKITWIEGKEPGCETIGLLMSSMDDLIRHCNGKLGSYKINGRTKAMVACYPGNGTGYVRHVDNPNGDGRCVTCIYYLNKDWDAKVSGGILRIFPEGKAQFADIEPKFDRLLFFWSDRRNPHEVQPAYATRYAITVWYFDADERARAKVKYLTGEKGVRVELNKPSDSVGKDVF
Chain of UniProt P42336 (whole entry, unmodified, looked up): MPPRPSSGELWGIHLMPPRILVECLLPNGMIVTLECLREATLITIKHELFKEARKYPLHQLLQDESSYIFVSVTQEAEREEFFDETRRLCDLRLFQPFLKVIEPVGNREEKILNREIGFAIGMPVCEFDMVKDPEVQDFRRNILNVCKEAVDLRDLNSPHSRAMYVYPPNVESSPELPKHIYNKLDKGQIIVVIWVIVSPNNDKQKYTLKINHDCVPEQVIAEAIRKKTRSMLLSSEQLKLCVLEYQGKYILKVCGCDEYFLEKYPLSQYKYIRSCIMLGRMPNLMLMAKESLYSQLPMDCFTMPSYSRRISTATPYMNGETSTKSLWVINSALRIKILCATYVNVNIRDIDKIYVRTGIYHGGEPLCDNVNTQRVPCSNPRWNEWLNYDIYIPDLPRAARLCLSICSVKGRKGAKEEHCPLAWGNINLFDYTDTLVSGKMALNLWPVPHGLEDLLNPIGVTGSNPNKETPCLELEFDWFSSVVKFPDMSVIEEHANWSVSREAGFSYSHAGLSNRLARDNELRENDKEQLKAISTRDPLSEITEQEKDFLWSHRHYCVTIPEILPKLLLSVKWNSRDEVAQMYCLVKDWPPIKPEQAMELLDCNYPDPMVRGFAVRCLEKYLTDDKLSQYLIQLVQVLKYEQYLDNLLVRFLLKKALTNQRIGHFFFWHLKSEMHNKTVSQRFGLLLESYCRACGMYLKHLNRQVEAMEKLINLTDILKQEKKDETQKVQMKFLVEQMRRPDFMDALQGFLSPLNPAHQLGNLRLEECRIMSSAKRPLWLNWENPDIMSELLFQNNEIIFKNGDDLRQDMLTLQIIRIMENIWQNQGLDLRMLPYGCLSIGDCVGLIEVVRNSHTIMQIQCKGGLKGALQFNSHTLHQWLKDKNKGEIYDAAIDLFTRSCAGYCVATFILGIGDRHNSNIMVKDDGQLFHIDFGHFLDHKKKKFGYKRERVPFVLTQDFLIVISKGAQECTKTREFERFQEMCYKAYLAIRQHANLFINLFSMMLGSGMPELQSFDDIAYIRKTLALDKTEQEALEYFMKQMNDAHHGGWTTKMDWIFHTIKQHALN
Chain of UniProt P02776 (whole entry, looked up): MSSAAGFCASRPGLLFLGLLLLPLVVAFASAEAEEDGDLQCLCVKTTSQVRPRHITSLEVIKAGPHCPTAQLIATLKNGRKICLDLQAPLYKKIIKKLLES

Substance | target | assay | test system | setting | IC50
Nc1ncnc2c1ncn2[C@@H]1O[C@H](COP(=O)(O)OP(=O)(O)C(Cl)(Cl)P(=O)(O)O)[C@@H](O)[C@H]1O | PDGFRA (Homo sapiens, UniProt P16234) | enzyme activity, inhibitor, HotSpot kinase |  | with: ATP 1 µM | 0.01 µM
FC(F)(F)Oc1ccc(Oc2ccnc(N3CCC(NC(=S)Nc4cccnc4)CC3)c2Cl)c(Cl)c1 | Abhd12 (Mus musculus, UniProt Q99LR1) | enzyme activity, inhibitor |  | lysate | ~0.03 µM
NO | CBS (Homo sapiens, UniProt P35520) | inhibitor, methylene blue |  | 60 min, with: L-cysteine and homocysteine 1 mM | 278 ± 22 µM
COc1cccc(OCC(O)Cn2c(=N)n(Cc3ccccc3)c3ccccc32)c1 (stereo not shown) | Kir3.1/Kir3.2 | ion flux |  |  | 1.43 µM
O=c1cc(N2CCOCC2)oc2c(OCc3ccccc3)cccc12 | PIK3CA (Homo sapiens, UniProt P42336, H855E) | enzyme activity, inhibitor |  |  | 2.3 µM
Cc1ccccc1OCC(O)Cn1c(=N)n(Cc2ccccc2)c2ccccc21 (stereo not shown) | Kir3.1/Kir3.2 | ion flux |  |  | 1.95 µM
O[C@@H]1[C@@H](O)[C@@H]2O[C@@H]2[C@H](Cn2cc(CCCOCc3ccc(-c4ccccc4)cc3)nn2)[C@H]1O | gba1 (Danio rerio, UniProt E7EZM1) |  |  |  | 0.004 to 0.006 µM
micropeptin 982 | Neutrophil elastase (ELANE, Homo sapiens, UniProt P08246) | inhibitor |  |  | 1.4 ± 0.15 µM
Cc1cc(OCc2nc(N)nc(N)c2-c2ccc(Cl)c(Cl)c2)ccc1[N+](=O)[O-] | BACE1 | inhibitor, FRET |  | pH 4.5 | 829 ± 346 µM
O=C1O[C@H]([C@@H](O)CO)C(O)=C1OP(=O)(O)O | mushroom tyrosinase | inhibitor |  | with: L-DOPA | 79 ± 5.86 µM
N=c1n(Cc2ccccc2)c2ccccc2n1CC(O)COc1cccc(Cl)c1 (stereo not shown) | Kir3.1/Kir3.2 | ion flux |  |  | 2.83 µM
C[C@]12CC3CC(Nc4c(Nc5ccc(CN6CCC[C@H](C(=O)NCCCCC(=O)NO)C6)cc5F)c(=O)c4=O)(C1)C[C@@](C)(C3)C2 | Ephx2 | enzyme activity, inhibitor, fluorescence |  |  | 1.29 µM
[Cl-].[Cl-].[Cl-].[La+3] | Collagenase 3 (MMP13, Homo sapiens, UniProt P45452) | enzyme activity, inhibitor |  | pH 7.5, with preincubation | 13.2 µM
CN(C)c1ccc(-n2cc(Cn3cccc(O)c3=S)nn2)cc1 | HDAC1 | enzyme activity, inhibitor, SAMDI mass spectrometry |  |  | > 10 µM
O=C1NC(=O)/C(=C/c2ccc3c(c2)OCO3)S1 | PIK3CA (Homo sapiens, UniProt P42336) | enzyme activity, inhibitor |  |  | 0.05 µM
OO | Proline--tRNA ligase 1 (proS1, Bacillus thuringiensis subsp. konkukian, UniProt Q6HEZ6) | aminoacylation, inhibitor |  | 10 min preincubation, 20 °C | 2600 µM
CC(C)C[C@H](NC(=O)[C@H](CC(C)C)NC(=O)[C@@H](Cc1c[nH]c2ccccc12)NC(=O)[C@H](Cc1ccccc1)NC(=O)[C@@H](Cc1c[nH]c2ccccc12)NC(=O)[C@H](CCC(N)=O)NC(=O)[C@H](CCC(N)=O)NC(=O)[C@@H]1CCCN1C(=O)[C@H](CCCCN)NC(=O)[C@@H]1CCCN1C(=O)[C@H](N)CCCN=C(N)N)C(N)=O | NMBR (Homo sapiens, UniProt P28336) | binding, radioligand displacement | Balb 3T3 or NCI-H1299 |  | 4.5 to 10 µM
Oc1cccn(Cc2ccc(-c3ccccc3)cc2)c1=S | HDAC1 | enzyme activity, inhibitor, SAMDI mass spectrometry |  |  | > 10 µM
C[C@H](NC(=O)C[C@H](CC(=O)NC(C)(C)C)NC(=O)CCc1ccccc1)C(=O)NCc1cccc2ccccc12 | Proteasome component C5/PSMB8 (Homo sapiens, UniProt P20618+P28062) | chymotrypsin-like activity, inhibitor |  | with: ac-ANW-AMC | 3.35 ± 0.64 µM
COc1ccc(-n2c(/C=C/c3ccccc3[N+](=O)[O-])nc3ccccc3c2=O)cc1 | Grik2 | ion current, inhibitor, two-electrode voltage clamp | Xenopus oocytes | concanavalin A pretreatment, with: 100 µM glutamate | > 300 µM
O=C1CCCCCCCCCCCCCCO1 | Liver carboxylesterase (Sus scrofa, UniProt Q29550) | enzyme activity, inhibitor |  | with preincubation | 364 µM
Fc1ccccc1 | Neuronal acetylcholine receptor; alpha4/beta2 (Homo sapiens, UniProt P17787+P43681) | ion current, inhibitor, two-electrode voltage clamp | Xenopus oocytes | with: ACh 1 mM | 0.007 atm
O=C(O)c1cc2c(C(F)(F)F)cc(-c3ccccc3)cc2n1O | LDHA (Homo sapiens, UniProt P00338) | inhibitor, NADH fluorescence |  | pyruvate competition, with: 150 µM NADH, 200 µM pyruvate | 73.4 ± 11 µM
C[C@H](CO)N1C[C@H](C)[C@H](CN(C)Cc2ccc(C(=O)Nc3ccccc3N)cc2)Oc2ccc(N(C)C)cc2CC1=O | HDAC1 | enzyme activity, inhibitor |  | with preincubation | 0.069 µM
O=C(Nc1ccc(S(=O)(=O)Nc2nccs2)cc1)[C@@H]1C[C@H]1c1ccccc1 | SCN3A (Homo sapiens, UniProt Q9NY46) | resting-state peak current, inhibitor, patch clamp |  |  | ~18 µM
Nc1ccc(C(=O)O)cc1 | mushroom tyrosinase | monophenolase activity, inhibitor |  | pH 6.8, 20 °C, with: p-coumaric acid substrate | 3.8 µM

Substance | target | assay | test system | setting | IC50
COc1cccc(-n2c(/C=C/c3cccc([N+](=O)[O-])c3)nc3ccccc3c2=O)c1 | Grik2 | ion current, inhibitor, two-electrode voltage clamp | Xenopus oocytes | concanavalin A pretreatment, with: 100 µM glutamate | > 300 µM
CC(C)C[C@H](NC(=O)[C@H](Cc1ccccc1)NC(=O)c1cnccn1)B(O)O | Proteasome subunits (Trypanosoma cruzi, UniProt Q4CU77+Q4D8U7) | chymotrypsin-like activity, inhibitor |  | wild-type proteasome | 0.091 ± 0.0075 µM
Cc1ccc(Cl)c(Nc2ccccc2C(=O)O)c1Cl | FTO (Homo sapiens, UniProt Q9C0B1) | enzyme activity, inhibitor, fluorescence |  | pH 6 | 12.5 µM
O=C(Nc1nnc(SCc2cn(Cc3cc(=O)c(O)co3)nn2)s1)c1ccc(Br)cc1 | PPO3 (Agaricus bisporus, UniProt C7FF04) | inhibitor |  |  | 6.7 ± 24 µM
O=C(N[C@@H](Cc1c[nH]c2ccccc12)C(=O)O)OCC1c2ccccc2-c2ccccc21 | Bifunctional epoxide hydrolase 2, N-terminal phosphatase domain (Ephx2, Mus musculus, UniProt P34914) | N-terminal phosphatase activity | mouse | 10 min preincubation, with: AttoPhos 15 µM | 4 µM
CCC(CC)CSc1nc2c([nH]1)c(=S)n(C)c(=O)n2C | PGR (Homo sapiens, UniProt P06401) | reporter gene, antagonist | T47D/A1-2 | estimated from 10 µM, with: progesterone | < 10 µM
Cc1cccc(-c2nnc3sc(Cc4ccc(F)cc4)nn23)c1 | PIM1 (Homo sapiens, UniProt P11309) | kinase activity, inhibitor, ADP-Glo |  |  | 0.92 ± 0.97 µM
Mg-ATP | TRPM7 (Homo sapiens, UniProt Q96QT4) | ion current, inhibitor, whole-cell patch clamp |  | pH 7.2, intracellular, Mg complex, with: 790 µM free Mg2+ | 2000 ± 760 µM
CN(C)CC(c1ccc(O)cc1)C1(O)CCCCC1 (stereo not shown) | Slc6a4 (Mus musculus, UniProt Q60857) | [3H]5-HT uptake | brain synaptosomes | 10 min, pH 7.4, 37 °C, wild type, with: [3H]5-HT 100 nM | 0.16 µM
CCCCCCCCN1CC2=C(C1=O)C(c1ccccc1O)NC(=O)N2 (stereo not shown) | ALPI (Bos taurus, UniProt P19111) | enzyme activity, inhibitor, absorbance |  | pH 9.5 | 8.72 µM
CN1CCN(Cc2ccc(NC(=O)c3cncc(C#Cc4c(N)ncc5ccc(F)cc45)c3)cc2C(F)(F)F)CC1 | Breakpoint cluster region protein/Tyrosine-protein kinase ABL1 (Homo sapiens, UniProt P00519+P11274) |  |  |  | 0.0111 ± 0.0011 µM
CN(c1ccccc1Cl)S(=O)(=O)C1CC2OC1C(c1ccc(O)cc1)=C2c1ccc(O)cc1 (stereo not shown) | ESR2 (Homo sapiens, UniProt Q92731) | reporter gene, antagonist, luciferase |  |  | 0.12 µM
Cc1occc(=O)c1O | EGLN1 | ODDD peptide hydroxylation, inhibitor, MALDI-TOF |  | first site of biphasic curve, with: 2-oxoglutarate 10 µM | 16 µM
C[C@@H](O)[C@@H](O)[C@@H](O)[C@H](O)C(=O)CO | 3-dehydroquinate synthase, chloroplastic (DHQS, Arabidopsis thaliana, UniProt Q8VYV7) | enzyme activity, inhibitor, malachite green phosphate release |  | 29 °C | 144 µM
O=C(Nc1cc(F)c(F)c(F)c1)c1cc(S(=O)(=O)N2CCOCC2)c(Cl)cc1Cl | LPAR5 (Homo sapiens, UniProt Q9H1C0) | Ca2+ mobilization, antagonist | B103 | with: LPA at EC50 | > 100 µM
CC(C)NCc1ccc(C[C@@H]2NC(=O)[C@H](N(C)C(=O)c3ccc4ccccc4c3)NC(=O)[C@H](Cc3ccccc3)NC(=O)[C@@H](N)CSSC[C@@H](C(=O)N[C@H](C(N)=O)[C@@H](C)O)NC(=O)[C@H](Cc3ccccc3)NC2=O)cc1 | SSTR4 (Homo sapiens, UniProt P31391) | ligand displacement, radioligand |  | cell membranes | 0.833 µM
O=C1O[C@H]([C@@H](O)CO)C(O)=C1O | mushroom tyrosinase | enzyme activity, inhibitor |  | 2 min, with: L-DOPA | 30 µg/mL
C[C@@H](CNCc1ccccc1)N1C[C@H](CCCNC(=N)N)N(CCc2cccc(F)c2)C1=S | NPBWR1 (Homo sapiens, UniProt P48145) | receptor activation, antagonist, FLIPR |  |  | > 10 µM
C[C@]12C[C@@H]3C[C@](C)(C1)C[C@@](NC(=O)Nc1ccc(CN4CCC[C@H](C(=O)NCCCCC(=O)NO)C4)cc1F)(C3)C2 | Ephx2 | enzyme activity, inhibitor, fluorescence |  |  | 0.0022 µM
CN(Cc1cc(Br)cc(Br)c1O)Cc1c(O)ccc2ccccc12 | BACE1 | inhibitor, FRET |  | pH 4.5 | 147 ± 55 µM
COc1ccc2c(CC(=O)NCCCC[C@H](N)C(=O)N[C@@H](CCC(=O)O)C(=O)N[C@@H](Cc3ccc(CS(=O)(=O)O)cc3)C(=O)N[C@@H](CCC(=O)O)C(=O)N[C@@H](Cc3ccc(CS(=O)(=O)O)cc3)C(=O)N[C@@H](CC(C)C)C(=O)N[C@@H](CC(=O)O)C(=O)N[C@@H](Cc3ccc(CS(=O)(=O)O)cc3)C(=O)N[C@@H](CC(=O)O)C(=O)N[C@@H](Cc3ccccc3)C(=O)N[C@@H](CC(C)C)C(=O)N3CCC[C@H]3C(=O)N[C@@H](CCC(=O)O)C(=O)N[C@H](C(=O)N[C@@H](CCC(=O)O)C(=O)N3CCC[C@H]3C(=O)N[C@@H](CC(C)C)C(=O)O)[C@@H](C)O[C@H]3O[C@H](CO[C@@H]4O[C@H](CO)[C@@H](O[C@@H]5O[C@H](CO)[C@H](O)[C@H](O[C@]6(C(=O)O)C[C@H](O)[C@@H](NC(C)=O)[C@H]([C@H](O)[C@H](O)CO)O6)[C@H]5O)[C@H](O[C@@H]5O[C@@H](C)[C@@H](O)[C@@H](O)[C@@H]5O)[C@H]4NC(C)=O)[C@H](O)[C@H](O[C@@H]4O[C@H](CO)[C@H](O)[C@H](O)[C@H]4O)[C@H]3NC(C)=O)cc(=O)oc2c1 | P-selectin (Mus musculus, UniProt Q01102) | chimera binding to neutrophils, inhibitor, flow cytometry | mouse neutrophils | with: P-selectin Fc chimera 2 µg/mL | ~19 µM
heparin | Platelet factor 4 (Homo sapiens, UniProt P02776) | binding, competitor, biolayer interferometry |  | 25 °C | 0.00146 ± 9e-05 µM
CCOC(=O)CC[C@@H](C)[C@H]1CC[C@H]2[C@@H]3CC[C@@H]4C[C@H](OC(=O)CCCCCC(=O)O)CC[C@]4(C)[C@H]3CC[C@]12C | human 20S proteasome | chymotrypsin-like activity, inhibitor |  | with: PA28 | > 10 µM
Cc1nc2cc(F)ccc2n1Cc1ccc(C(=O)NO)cc1 | HDAC1 | enzyme activity, inhibitor |  |  | 5.87 µM
C[C@]12CC3CC(Nc4c(Nc5ccc(CN6CCC[C@H](C(=O)NCCCC(=O)NO)C6)cc5)c(=O)c4=O)(C1)C[C@@](C)(C3)C2 | Ephx2 | enzyme activity, inhibitor, fluorescence |  |  | 2.3 µM
O=C(O)CCCC(=O)NNC(=O)c1ccccn1 | EGLN1 | inhibitor, AlphaScreen |  | bimodal curve, rough estimate, with: 2 µM 2-oxoglutarate | > 300 µM

Repeated from above:
Substance | target | assay | test system | setting | IC50
CN(C)CC(c1ccc(O)cc1)C1(O)CCCCC1 (stereo not shown) | Slc6a4 (Mus musculus, UniProt Q60857) | [3H]5-HT uptake | brain synaptosomes | 10 min, pH 7.4, 37 °C, wild type, with: [3H]5-HT 100 nM | 0.16 µM
CCCCCCCCN1CC2=C(C1=O)C(c1ccccc1O)NC(=O)N2 (stereo not shown) | ALPI (Bos taurus, UniProt P19111) | enzyme activity, inhibitor, absorbance |  | pH 9.5 | 8.72 µM
CN1CCN(Cc2ccc(NC(=O)c3cncc(C#Cc4c(N)ncc5ccc(F)cc45)c3)cc2C(F)(F)F)CC1 | Breakpoint cluster region protein/Tyrosine-protein kinase ABL1 (Homo sapiens, UniProt P00519+P11274) |  |  |  | 0.0111 ± 0.0011 µM
CN(c1ccccc1Cl)S(=O)(=O)C1CC2OC1C(c1ccc(O)cc1)=C2c1ccc(O)cc1 (stereo not shown) | ESR2 (Homo sapiens, UniProt Q92731) | reporter gene, antagonist, luciferase |  |  | 0.12 µM
Cc1occc(=O)c1O | EGLN1 | ODDD peptide hydroxylation, inhibitor, MALDI-TOF |  | first site of biphasic curve, with: 2-oxoglutarate 10 µM | 16 µM
C[C@@H](O)[C@@H](O)[C@@H](O)[C@H](O)C(=O)CO | 3-dehydroquinate synthase, chloroplastic (DHQS, Arabidopsis thaliana, UniProt Q8VYV7) | enzyme activity, inhibitor, malachite green phosphate release |  | 29 °C | 144 µM
